Published values collected from several papers.
Protocols differ between the studies behind these lines.
UCHL1: Ubiquitin carboxyl-terminal hydrolase isozyme L1 (UCHL1, Homo sapiens, UniProt P09936)
Chain of UniProt P09936 (whole entry, looked up): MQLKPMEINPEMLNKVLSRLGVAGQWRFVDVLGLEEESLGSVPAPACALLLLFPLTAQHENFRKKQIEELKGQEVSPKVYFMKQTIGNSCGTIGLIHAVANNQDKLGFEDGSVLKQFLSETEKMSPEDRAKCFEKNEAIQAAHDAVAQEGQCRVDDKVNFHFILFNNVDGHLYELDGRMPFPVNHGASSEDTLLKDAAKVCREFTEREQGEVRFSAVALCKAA
PIK3CA with p85 alpha: Phosphatidylinositol 4,5-bisphosphate 3-kinase catalytic subunit alpha isoform, with p85 alpha (PIK3CA, Homo sapiens, UniProt P42336)
PIK3CA E542K with p85 alpha: Phosphatidylinositol 4,5-bisphosphate 3-kinase catalytic subunit alpha isoform, with p85 alpha (PIK3CA, Homo sapiens, UniProt P42336, E542K)

SMILES = N#CC(=Cc1cccc(O)c1)C(=O)Nc1ccccc1C(=O)O; target = UCHL1; assay = covalent, intact protein LC-MS; conditions = 12.5 µM; endpoint = labelling; result = 40.4%
SMILES = Cc1nc(NC(=O)N2CCCC2)sc1-c1csc(C(C)(C)C)n1; target = Phosphatidylinositol 4,5-bisphosphate 3-kinase catalytic subunit alpha isoform (PIK3CA, Homo sapiens, UniProt P42336, Q859A); conditions = 3 µM; how to read = baseline: wild type; endpoint = inhibition difference; result = 9%
SMILES = CN(C)C1CCN(CC#Cc2nn(C3CCCC3)c3nc(NCc4ccccc4)ncc23)C1 (stereo not shown); target = PIK3CA with p85 alpha; assay = enzyme activity, inhibitor, Z'-LYTE; conditions = 10000 nM; endpoint = inhibition; result = -2%
SMILES = Cc1ccc(NC(=O)C(C#N)=Cc2ccc(Cl)cc2Cl)cc1C; target = UCHL1; assay = covalent, intact protein LC-MS; conditions = 12.5 µM; endpoint = labelling; result = 25.7%
SMILES = COc1cc(-c2cncc3c2CN(C)Cc2cc(N4CCNCC4)ccc2-3)cc(OC)c1OC; target = PIK3CA with p85 alpha; assay = kinase activity; conditions = 1 µM, p110a/p85a)(h human, with: ATP 10 µM; how to read = baseline: DMSO; endpoint = remaining activity; result = 97%
SMILES = O=C(CSc1nc2nccnc2c(=O)n1CCc1ccccc1)Nc1nccs1; target = Phosphatidylinositol 4,5-bisphosphate 3-kinase catalytic subunit alpha isoform, with p55 gamma (PIK3CA, Homo sapiens, UniProt P42336); assay = kinase activity, inhibitor; conditions = 10 µM, with: PIK3R3 complex; endpoint = inhibition; result = 27%
SMILES = C=CC(=O)Nc1cc(Nc2nccc(Nc3cc(Cl)c(F)cc3C(C)(C)O)n2)c(OC)cc1N1CC[C@@H](N(C)C)C1; target = PIK3CA with p85 alpha; assay = kinase activity, inhibitor; conditions = 1 µM; endpoint = inhibition; result = 0%
SMILES = CS(=O)(=O)Nc1cccc(-c2csc(NC(=O)CSc3nc4nccnc4c(=O)n3CCc3ccccc3)n2)c1; target = PIK3CA E542K with p85 alpha; conditions = 10 µM, E542K with PIK3R1; endpoint = inhibition; result = 6%
SMILES = O=C(NC1CCC1)c1ccc2nc(-c3cccc(NS(=O)(=O)NCCN4CCCCC4)c3)cn2c1; target = Phosphatidylinositol 4,5-bisphosphate 3-kinase catalytic subunit alpha isoform (PIK3CA, Homo sapiens, UniProt P42336, E545K); assay = enzyme activity; conditions = 10 µM; endpoint = remaining activity; result = 75%
SMILES = Cc1cc(NC(=O)c2cccc3cc(-c4cccc5[nH]nc(N)c45)ccc23)ccc1F; target = PIK3CA E542K with p85 alpha; assay = inhibitor; conditions = 0.1 µM; endpoint = remaining activity; result = 98%
SMILES = [2H]c1cc(C)c(NC(=O)c2cnc(Nc3cc(N4CCCCC4)nc(C)n3)s2)c(Cl)c1; target = Phosphatidylinositol 4,5-bisphosphate 3-kinase catalytic subunit alpha isoform, with PIK3R1 (PIK3CA, Homo sapiens, UniProt P42336); conditions = 0.01 µM; endpoint = inhibition; result = 30 to 90%
SMILES = Cc1ccc(NC(=O)c2ccc(C)c(C(F)(F)F)c2)cc1C#Cc1nn(C2CCC(O)CC2)c2ncnc(N)c12 (stereo not shown); target = Phosphatidylinositol 4,5-bisphosphate 3-kinase catalytic subunit alpha isoform, with p85 alpha (PIK3CA, Homo sapiens, UniProt P42336, H1047R); assay = enzyme activity, inhibitor; conditions = 10 µM, p110a(H1047R)/p85a)(h human, with: ATP 10 µM; endpoint = remaining activity; result = 89%
SMILES = C=CC(=O)N1CCC(COCC(=O)N2CCN(c3nc(-c4cnc(N)nc4C(F)F)nc(N4CCOC[C@@H]4C)n3)CC2)CC1; target = Phosphatidylinositol 4,5-bisphosphate 3-kinase catalytic subunit alpha isoform (PIK3CA, Homo sapiens, UniProt P42336, H1047Y); assay = KINOMEscan; conditions = 1 µM; endpoint = remaining binding; result = 0.15%

For quick reference, copied from above:
SMILES = CN(C)C1CCN(CC#Cc2nn(C3CCCC3)c3nc(NCc4ccccc4)ncc23)C1 (stereo not shown); target = PIK3CA with p85 alpha; assay = enzyme activity, inhibitor, Z'-LYTE; conditions = 10000 nM; endpoint = inhibition; result = -2%
